Experimental data pooled from the literature.
± marks the error that the study gave.
Nuclear receptor subfamily 2 group C member 2 ligand-binding domain: Nuclear receptor subfamily 2 group C member 2, ligand-binding domain (Homo sapiens, UniProt P49116)
Sequence of UniProt P49116 (whole entry, looked up): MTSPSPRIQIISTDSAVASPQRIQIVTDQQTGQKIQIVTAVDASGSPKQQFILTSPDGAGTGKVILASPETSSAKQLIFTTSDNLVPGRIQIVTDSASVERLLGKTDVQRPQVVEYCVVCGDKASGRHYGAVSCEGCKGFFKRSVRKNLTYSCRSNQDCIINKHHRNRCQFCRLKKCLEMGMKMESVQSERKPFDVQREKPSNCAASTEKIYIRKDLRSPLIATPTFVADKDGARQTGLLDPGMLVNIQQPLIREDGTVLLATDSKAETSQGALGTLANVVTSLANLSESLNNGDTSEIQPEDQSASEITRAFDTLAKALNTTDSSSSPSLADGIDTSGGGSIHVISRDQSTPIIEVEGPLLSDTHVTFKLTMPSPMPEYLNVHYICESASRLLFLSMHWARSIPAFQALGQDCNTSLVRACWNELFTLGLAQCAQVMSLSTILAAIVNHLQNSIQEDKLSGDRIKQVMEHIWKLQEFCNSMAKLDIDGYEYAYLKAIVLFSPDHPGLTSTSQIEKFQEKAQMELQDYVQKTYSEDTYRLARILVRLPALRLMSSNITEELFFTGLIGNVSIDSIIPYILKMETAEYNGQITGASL

| SMILES | target or system | assay | test system | setting | endpoint | value |
| --- | --- | --- | --- | --- | --- | --- |
| Nc1ccccc1NC(=O)CCCCCCC(=O)Nc1ccccc1 | OCI-Ly1 |  |  | 0.1 µM, 120 h | viability | 108% |
| O=C(O)/C=C/c1ccc(O[C@@H]2O[C@H](C(=O)O)[C@@H](O)[C@H](O)[C@H]2O)c(O)c1 |  |  | human plasma | mean | plasma concentration | 388 nM |
| COc1ccccc1OCC(O)CN1CCN(CC(=O)Nc2c(C)cccc2C)CC1 (stereo not drawn) |  |  | human, plasma | oral, 12 mg/kg/day every 6 h, 1 h post-dose | plasma concentration | 1300 ng/mL |
| C=CC(=O)N1CCC([C@@H]2CCNc3c(C(N)=O)c(-c4ccc(Oc5ccccc5)cc4)nn32)CC1 |  |  | human K2EDTA plasma |  | plasma stability freeze-thaw cycles | ≤ 5 freeze-thaw cycles |
| COc1c(O)cc(C(=O)O)cc1OS(=O)(=O)O |  |  | human plasma | mean | plasma concentration | 723 nM |
| CC(=O)N1CCN(c2ccc(OCC3COC(Cn4ccnc4)(c4ccc(Cl)cc4Cl)O3)cc2)CC1 (stereo not drawn) |  |  | mouse plasma | 1 µM, 6 h, 37 °C | plasma stability | 88.8% |
| COc1cc(CCC(=O)O)ccc1OS(=O)(=O)O |  |  | human plasma | mean | plasma concentration | 409 nM |
| Cl.N=C(CC(O)c1cc2c(F)cc(F)cc2c2cc(C(F)(F)F)ccc12)Nc1ccc(F)c(F)c1 (stereo not drawn) |  |  | human plasma | 2.5 and 50 ng/mL | plasma half-life | 51 to 65 h |
| O=C(O)CCc1ccc(O)c(O)c1 |  |  | human plasma | median | plasma concentration | 232 nM |
| CC(C)NCC(O)COc1cccc2ccccc12 (stereo not drawn) |  | rapid equilibrium dialysis | human plasma | 4 h | plasma protein binding | 77.6 ± 0.9% |
| COc1cc2c3c(n(CCCNCCO)c(=O)c2cc1OC)-c1nc2c(cc1C3=O)OCO2 |  |  | human plasma | 1 µM, 6 h, 37 °C | plasma stability | 95.4% |
| O=C(CCCCCCC(=O)Nc1ccccc1)NO |  |  | human plasma |  | plasma stability | stable |
| C[C@H](CCC(=O)NCC(=O)O)[C@H]1CC[C@H]2[C@@H]3CC[C@@H]4C[C@H](O)CC[C@]4(C)[C@H]3C[C@H](O)[C@]12C |  |  | women, T/C genotype, plasma | dose not given, geometric mean | plasma concentration | 115 ng/mL |
| CCOC(=O)Nc1cc(-c2ccc(C)c(NS(C)(=O)=O)c2)nn2c(C)nnc12 | OCI-Ly1 |  |  | 1 µM, 120 h | viability | 3.54% |
| COc1cc2c3c(n(CCCNC(C)C)c(=O)c2cc1OC)-c1nc2c(cc1C3=O)OCO2 |  |  | mouse plasma | 1 µM, 6 h, 37 °C | plasma stability | 92.6% |
| COc1cc(C(=O)O)cc(OC)c1O |  |  | human plasma | median, both sexes | plasma concentration | 4570 nM |
| CCNCCCn1c2c(c3cc(OC)c(OC)cc3c1=O)C(=O)c1cc3c(nc1-2)OCO3 |  |  | mouse plasma | 1 µM, 6 h, 37 °C | plasma stability | 86.6% |
| Cc1cc(Nc2ccc(S(F)(F)(F)(F)F)cc2)n2ncnc2n1 |  |  | diluted mouse plasma | 2 µM, 6 h | plasma stability | 95 % remaining |
| O=S(=O)(O)Oc1cccc(O)c1O |  |  | human plasma | median | plasma concentration | 917 nM |
| CC(C)C[C@H](NC(=O)[C@@H](Cc1c[nH]c2ccccc12)NC(=O)[C@H](Cc1ccc(O)cc1)NC(=O)[C@H](CO)NC(=O)[C@H](Cc1c[nH]c2ccccc12)NC(=O)[C@H](Cc1c[nH]cn1)NC(=O)[C@@H]1CCC(=O)N1)C(=O)N[C@@H](CCCNC(=N)N)C(=O)N1CCC[C@H]1C(=O)NCC(N)=O |  |  | Chinese children, precocious puberty, plasma | intramuscular, 22.5 mg, 4320 h, pre-dose second injection, mean | plasma concentration | 0.599 ng/mL |
| OCCOCc1ccc(-c2noc(-c3ccc(OCC[18F])c(C(F)(F)F)c3)n2)cc1 |  | ultrafiltration | Macaca mulatta, plasma | baseline, both animals | plasma free fraction | < 1% |
| O=c1c2cc(Cl)ccc2[nH]c(=S)n1Cc1cccnc1 |  |  | mouse plasma | concentration not given | plasma stability | 95 to 98.7% |
| CNC(=O)c1cc(Oc2ccc(NC(=O)Nc3ccc(Cl)c(C(F)(F)F)c3)c(F)c2)ccn1 | Nuclear receptor subfamily 2 group C member 2 ligand-binding domain | SPR imaging |  |  | Kd | 3.31 nM |
| O=C(O)C=Cc1ccc(O)c(OS(=O)(=O)O)c1 |  |  | human plasma | median | plasma concentration | 188 nM |
| C[C@@H](O)[C@H](NC(=O)[C@H](Cc1ccc(O)cc1)NC(=O)[C@H](Cc1ccc(O)cc1)NC(=O)[C@H](CO)NC(=O)[C@H](CCCNC(=N)N)NC(=O)[C@H](Cc1c[nH]cn1)NC(=O)[C@@H](N)Cc1c[nH]c2ccccc12)C(=O)N[C@@H](Cc1c[nH]c2ccccc12)C(=O)N[C@@H](CC(N)=O)C(=O)NCCCC[C@H](NC(=O)[C@H](CC(N)=O)NC(=O)[C@H](Cc1c[nH]c2ccccc12)NC(=O)[C@@H](NC(=O)[C@H](Cc1ccc(O)cc1)NC(=O)[C@H](Cc1ccc(O)cc1)NC(=O)[C@H](CO)NC(=O)[C@H](CCCNC(=N)N)NC(=O)[C@H](Cc1c[nH]cn1)NC(=O)[C@@H](N)Cc1c[nH]c2ccccc12)[C@@H](C)O)C(N)=O |  |  | human serum albumin |  | plasma protein binding | 93% |
| Cc1ccc2[nH]c(=S)n(Cc3cccnc3)c(=O)c2c1 |  |  | mouse plasma | concentration not given | plasma stability | 95 to 98.7% |
| C[C@H](CCC(=O)NCC(=O)O)[C@H]1CC[C@H]2[C@@H]3[C@H](O)C[C@@H]4C[C@H](O)CC[C@]4(C)[C@H]3CC[C@]12C |  |  | men, C/C genotype, plasma | dose not given, geometric mean | plasma concentration | 813 ng/mL |
| CN1CCN(C2=Nc3ccccc3Oc3ccc(Cl)cc32)CC1 | Nuclear receptor subfamily 2 group C member 2 ligand-binding domain | SPR imaging |  |  | Kd | 6.87 nM |
| OC[C@H](Cc1cccc(O)c1)[C@H](CO)Cc1cccc(O)c1 |  |  | human plasma | median, both sexes | plasma concentration | 826 nM |
| O=C1CCc2ccc(OCCCCN3CCN(c4cccc(Cl)c4Cl)CC3)cc2N1 |  |  | patients, plasma, steady state | oral or long-acting depot injection, dose not given, CYP2D6 IM, median | plasma concentration | 173 ng/mL |

Repeated from above:
| SMILES | target or system | assay | test system | setting | endpoint | value |
| --- | --- | --- | --- | --- | --- | --- |
| Cc1ccc2[nH]c(=S)n(Cc3cccnc3)c(=O)c2c1 |  |  | mouse plasma | concentration not given | plasma stability | 95 to 98.7% |
| CC(C)NCC(O)COc1cccc2ccccc12 (stereo not drawn) |  | rapid equilibrium dialysis | human plasma | 4 h | plasma protein binding | 77.6 ± 0.9% |
| O=c1c2cc(Cl)ccc2[nH]c(=S)n1Cc1cccnc1 |  |  | mouse plasma | concentration not given | plasma stability | 95 to 98.7% |
